Measurements gathered from unrelated publications.
Every numbered part comes from another study and shows a few of its results, in no order.

Study 1
Target: RNA binding protein fox-1 homolog 2, RRM domain, GST-SBP tag (RBFOX2, Homo sapiens, UniProt O43251-10, residues 100-194)
Method: RNA Bind-n-Seq
Molecule type: RNA
Sample: in vitro
Tested at: 365 nM
Setting: natural RNA segment, single round, ends assumed
Relative to: no-protein control
Reading: higher = stronger binding
Endpoint: RBNS enrichment (R)
Constant ends, left off below: GGGAGUUCUACAGUCCGACGAUC … UGGAAUUCUCGGGUGCCAA
Construct (chain): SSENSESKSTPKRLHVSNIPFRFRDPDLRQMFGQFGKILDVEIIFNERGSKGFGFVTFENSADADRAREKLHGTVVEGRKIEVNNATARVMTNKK
AGUCUUGUACCUCAGGCAGGCCCAUCUAGAGCUAUUGCUCCUUCCCACAGCAAAGGUAUUGUGGAUGACCCUUAGAAUCCAUUCUCUGGUCUUCUGAAAUACCAAGGGCA: 0.279
CCUGGCCUUCUAGGAAUGGAGGAGCCAGGCCCCACCCCUUCCCUAUAGGAACAGCCCAGCACAGGUAUUUCAGGUGUGAAAGAAUCAGUAGGACCAGGCCACCGCUAGUG: 0.247
CAACACUACCCAGGACUCUUGCUACCUGGUUCCAACUCCAGACAACCACUAUGCCAGGCCCGGAGCCUCUGAGGCAUCGGCCAGUCCAGGCCCUCAUCUGAGGUAAGAAU: 0.271
UUUUGCAUUCAAAGGACAUCCACAUCUGUUGGAAGACUUUUAAGUGAGUUUUUGUUCUUAGAUAACCCACAUUAGAUGAAUGUGUUAAGUGAAAUGAUACUUGUACUCCC: 0.843
ACAGUGAGACAAAUGGAAGUACUCCCCUCGCAGAUUCAGACACUCCAAACGGGACACAGCAAGACGAGACCGUUGACAGCCAGGACAGUAAUGCCAUUGCCGCCGUCAAG: 1.14
UUUCUGUUACACAUAUGGUUUUGAUUUAUUUACAAUAUAUGCUGUGCCAUUUUGAUUUUUAUUUUGGUUGGUUGGUUGAAUAAAUAUGCGACACUCAGAACACUUGAGGU: 0.677
CUAUUAUAUUAUGUAGUCCGUUAACACUACUUAAAAGUUUAGGGUUUUCUCUUGGUUGUAGAGUGGCCCAGAAUUGCAUUCUGAAUGAAUAAAGGUUAAAAAAAAAUCCC: 0.577
UGGAUUAGGGAUAGGCACCUCUGAAAUCUCCACCCUGAUGAUUGGAAUGAAACGGAGUGAACAUGAGCCCAGCUGAGAGAGGAGCAGGAAUGUGUGAAAAACAGCUGCUC: 0.955

Study 2
Target: Interferon regulatory factor 5, full length, phosphomimetic (IRF5, Homo sapiens, UniProt Q13568-2, residues 1-514, K96S/S451D/S453D/S456D/S462D)
Method: protein-binding microarray
Molecule type: double-stranded DNA, one strand shown
Sample: in vitro
Tested at: 250 nM
Setting: 60-bp whole probe
Together with: salmon DNA 0.4 mg/ml
Relative to: random background probes
Reading: higher = stronger binding
Endpoint: log fluorescence
Constant ends, left off below: GCCTAGCAC … GTCTTGATTCGCTTGACGCTGCTG
TTAGGTCTCTGTCTCGGTTAGTGCTAG: 0.415 z-score
TTAGATCTCAGATTCGATTAGTGCTAG: 0.884 z-score
TCACATTGAGATTTTCATACTGTGCTA: 0.855 z-score
TTAGATTTCAGTTTCGAGTAGTGCTAG: 8.03 z-score
GTGGGACCCATGAACACTCAGTGCTAG: -0.616 z-score
GATGGACTGGGTATCGGGACGTGCTAG: 0.348 z-score
CTGAGATGCATTCTGGGCCCGTGCTAG: -0.514 z-score
GACGATTCCGGGACTGGAGACGTGCTA: -0.271 z-score

Study 3
Target: Sal-like protein 4, full length isoform A (SALL4, Homo sapiens, UniProt Q9UJQ4, residues 1-1053)
Chain of UniProt Q9UJQ4 (whole entry, looked up): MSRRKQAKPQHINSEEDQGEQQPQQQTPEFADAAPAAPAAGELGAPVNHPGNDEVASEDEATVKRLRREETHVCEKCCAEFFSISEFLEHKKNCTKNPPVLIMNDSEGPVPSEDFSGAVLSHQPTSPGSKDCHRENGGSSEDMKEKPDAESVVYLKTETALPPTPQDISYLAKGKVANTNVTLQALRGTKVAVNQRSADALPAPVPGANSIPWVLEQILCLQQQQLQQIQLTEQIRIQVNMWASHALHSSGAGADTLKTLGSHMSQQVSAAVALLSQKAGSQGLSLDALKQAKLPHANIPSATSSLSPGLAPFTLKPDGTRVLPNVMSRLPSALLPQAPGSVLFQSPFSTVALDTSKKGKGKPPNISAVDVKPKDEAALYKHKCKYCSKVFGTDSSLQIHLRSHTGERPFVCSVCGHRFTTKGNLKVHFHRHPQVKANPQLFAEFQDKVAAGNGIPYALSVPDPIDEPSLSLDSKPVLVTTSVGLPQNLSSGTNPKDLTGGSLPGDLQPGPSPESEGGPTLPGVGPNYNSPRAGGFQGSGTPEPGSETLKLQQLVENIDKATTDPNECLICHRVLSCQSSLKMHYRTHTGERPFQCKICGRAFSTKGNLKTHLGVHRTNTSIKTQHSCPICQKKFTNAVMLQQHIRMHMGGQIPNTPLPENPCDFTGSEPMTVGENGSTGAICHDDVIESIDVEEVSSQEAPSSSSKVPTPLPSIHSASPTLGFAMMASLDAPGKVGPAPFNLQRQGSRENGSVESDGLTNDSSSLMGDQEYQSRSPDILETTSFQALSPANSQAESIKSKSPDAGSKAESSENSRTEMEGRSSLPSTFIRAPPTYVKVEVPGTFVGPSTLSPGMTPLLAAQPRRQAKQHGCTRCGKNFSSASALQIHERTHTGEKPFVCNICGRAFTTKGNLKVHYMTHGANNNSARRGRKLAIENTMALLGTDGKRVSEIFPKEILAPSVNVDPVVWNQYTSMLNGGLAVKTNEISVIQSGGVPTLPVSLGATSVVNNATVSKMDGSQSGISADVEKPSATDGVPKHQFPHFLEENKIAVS
Method: universal PBM
Molecule type: double-stranded DNA, one strand shown
Sample: in vitro
Tested at: 600 nM
Setting: 8-mer, flanks averaged, mean of replicates
Reading: higher = stronger binding
Endpoint: E-score
ACTCCCTA: 0.0285
CAGCGGCA: -0.281
AACGGGCT: -0.257
TAAACAAA: 0.267
TCCATAAA: 0.306
ATCAATAA: 0.383
AATCAGTA: 0.146
TCTCTGAA: -0.0557
GTTAGTAA: 0.186
CGCCCATA: -0.13

Mixed results
PhoQ, residues 284 288 289 292 302 303 TSTLRA — fold induction (PhoP, residues 12 14 15 18 19 LWHSL (Escherichia coli, UniProt P23836); Sort-seq, item: YFP reporter; E. coli; PhoQ-PhoP variant library, together with: 10 µM Mg2+; relative to: high Mg2+ state, higher = stronger signaling): 11.7

For quick reference, copied from above (study 3):
CGCCCATA: -0.13
TCCATAAA: 0.306
ATCAATAA: 0.383
